Measured values of several laboratories.
Numbered parts are unrelated; each lists some results of a single study. “And” joins repeats or separate records; there may be more than shown.
Sequence of UniProt P41145 (whole entry, looked up): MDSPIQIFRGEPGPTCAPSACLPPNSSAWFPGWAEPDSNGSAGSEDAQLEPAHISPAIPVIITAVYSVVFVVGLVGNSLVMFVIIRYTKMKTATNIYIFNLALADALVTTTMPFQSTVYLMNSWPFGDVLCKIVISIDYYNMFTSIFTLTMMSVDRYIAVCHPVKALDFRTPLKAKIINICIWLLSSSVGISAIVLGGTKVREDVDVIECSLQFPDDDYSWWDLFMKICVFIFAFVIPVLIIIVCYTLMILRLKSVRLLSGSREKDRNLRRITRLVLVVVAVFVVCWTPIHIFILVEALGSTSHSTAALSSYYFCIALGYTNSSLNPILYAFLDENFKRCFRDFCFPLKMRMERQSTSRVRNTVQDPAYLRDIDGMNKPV

Sample 1 — read-out: enzyme activity; mode: inhibitor; concentration: 77 µM; relative to: untreated
Target: DNA polymerase theta, ATPase domain (POLQ, Homo sapiens, UniProt O75417)
Sequence of UniProt O75417 (whole entry, unmodified, looked up): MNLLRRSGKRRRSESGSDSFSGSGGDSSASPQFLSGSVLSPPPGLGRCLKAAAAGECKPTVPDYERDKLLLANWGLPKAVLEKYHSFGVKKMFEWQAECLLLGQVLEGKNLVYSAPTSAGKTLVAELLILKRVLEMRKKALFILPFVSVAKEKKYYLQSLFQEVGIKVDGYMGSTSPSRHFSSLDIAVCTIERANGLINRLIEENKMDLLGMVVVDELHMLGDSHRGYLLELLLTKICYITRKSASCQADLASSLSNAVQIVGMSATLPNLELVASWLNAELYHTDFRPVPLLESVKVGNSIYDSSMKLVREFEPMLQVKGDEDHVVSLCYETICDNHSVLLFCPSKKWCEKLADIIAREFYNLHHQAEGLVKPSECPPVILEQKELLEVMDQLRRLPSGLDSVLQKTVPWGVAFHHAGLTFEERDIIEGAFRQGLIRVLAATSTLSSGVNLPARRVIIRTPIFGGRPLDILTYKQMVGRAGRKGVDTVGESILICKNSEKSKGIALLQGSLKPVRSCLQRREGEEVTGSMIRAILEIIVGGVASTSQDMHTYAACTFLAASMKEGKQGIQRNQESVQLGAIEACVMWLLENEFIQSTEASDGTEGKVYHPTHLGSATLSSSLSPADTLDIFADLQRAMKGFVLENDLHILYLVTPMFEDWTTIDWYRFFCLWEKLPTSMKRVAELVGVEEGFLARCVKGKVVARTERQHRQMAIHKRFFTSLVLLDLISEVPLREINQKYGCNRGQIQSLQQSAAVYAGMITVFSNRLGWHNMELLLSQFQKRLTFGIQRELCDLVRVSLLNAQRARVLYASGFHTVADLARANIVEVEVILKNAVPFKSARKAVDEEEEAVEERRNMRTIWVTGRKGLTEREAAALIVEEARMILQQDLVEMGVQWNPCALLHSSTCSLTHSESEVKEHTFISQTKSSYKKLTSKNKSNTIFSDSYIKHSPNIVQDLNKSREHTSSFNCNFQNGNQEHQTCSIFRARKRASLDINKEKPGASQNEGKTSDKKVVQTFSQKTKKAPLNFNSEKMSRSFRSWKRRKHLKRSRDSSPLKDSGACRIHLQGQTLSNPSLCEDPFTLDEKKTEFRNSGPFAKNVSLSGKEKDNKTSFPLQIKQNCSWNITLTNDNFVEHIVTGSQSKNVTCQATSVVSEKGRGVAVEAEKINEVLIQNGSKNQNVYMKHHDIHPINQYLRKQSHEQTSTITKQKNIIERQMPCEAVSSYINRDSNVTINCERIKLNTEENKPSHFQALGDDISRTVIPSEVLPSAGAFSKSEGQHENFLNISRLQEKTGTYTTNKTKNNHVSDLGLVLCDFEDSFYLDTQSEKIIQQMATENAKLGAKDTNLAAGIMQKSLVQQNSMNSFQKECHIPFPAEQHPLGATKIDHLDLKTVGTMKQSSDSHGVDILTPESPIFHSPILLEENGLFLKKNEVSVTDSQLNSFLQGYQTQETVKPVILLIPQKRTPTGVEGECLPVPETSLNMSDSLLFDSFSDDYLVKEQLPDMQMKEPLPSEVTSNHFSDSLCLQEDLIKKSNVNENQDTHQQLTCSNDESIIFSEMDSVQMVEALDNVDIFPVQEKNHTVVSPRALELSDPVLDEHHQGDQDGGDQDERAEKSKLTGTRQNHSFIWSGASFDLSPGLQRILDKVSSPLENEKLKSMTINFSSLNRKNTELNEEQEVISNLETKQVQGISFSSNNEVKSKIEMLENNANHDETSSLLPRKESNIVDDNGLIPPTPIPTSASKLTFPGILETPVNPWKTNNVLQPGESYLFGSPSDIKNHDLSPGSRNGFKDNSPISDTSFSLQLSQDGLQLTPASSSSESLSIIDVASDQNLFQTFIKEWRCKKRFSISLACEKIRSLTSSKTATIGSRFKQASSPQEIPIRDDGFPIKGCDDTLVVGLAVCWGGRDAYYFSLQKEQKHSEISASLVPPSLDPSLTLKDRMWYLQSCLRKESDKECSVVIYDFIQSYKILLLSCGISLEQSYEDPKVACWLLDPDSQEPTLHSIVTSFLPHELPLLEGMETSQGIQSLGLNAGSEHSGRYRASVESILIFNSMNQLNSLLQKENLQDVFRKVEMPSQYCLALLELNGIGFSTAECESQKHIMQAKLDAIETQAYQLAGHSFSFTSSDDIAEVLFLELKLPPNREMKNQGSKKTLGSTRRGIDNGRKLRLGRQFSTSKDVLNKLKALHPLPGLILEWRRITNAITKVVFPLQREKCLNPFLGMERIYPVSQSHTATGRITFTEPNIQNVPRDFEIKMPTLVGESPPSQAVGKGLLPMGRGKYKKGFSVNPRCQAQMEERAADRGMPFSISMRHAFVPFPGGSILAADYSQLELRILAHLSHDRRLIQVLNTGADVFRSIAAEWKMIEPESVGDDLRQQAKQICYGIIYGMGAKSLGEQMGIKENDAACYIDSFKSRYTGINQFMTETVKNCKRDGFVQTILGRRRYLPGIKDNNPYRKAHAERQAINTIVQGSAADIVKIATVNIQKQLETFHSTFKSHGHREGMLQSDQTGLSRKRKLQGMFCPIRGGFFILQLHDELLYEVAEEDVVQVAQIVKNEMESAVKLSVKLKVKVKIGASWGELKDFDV
With `O=C(N[C@@H](Cc1ccccc1)C(=O)CCl)OCc1ccccc1` the remaining activity was 101%.
The remaining activity of `COC(=O)C1=C(C)NC(C)=C(C(=O)OC(C)C)C1c1cccc2nonc12` (stereo not shown) is reported as 91% and 102%.
For `O=C(O)C1=CCCNC1`, the remaining activity was 111%.
The remaining activity of `COCCCOc1cc(C[C@@H](C[C@H](N)[C@@H](O)C[C@H](C(=O)NCC(C)(C)C(N)=O)C(C)C)C(C)C)ccc1OC` is reported as 92.6%.
The remaining activity of `CCc1c(Cl)c(O)c(Cl)c(O)c1C(=O)O[C@H]1[C@H](O)[C@H](OC)[C@H](OC/C2=C\C=C\C[C@H](O)/C(C)=C/[C@H](CC)[C@@H](O[C@@H]3OC(C)(C)[C@@H](OC(=O)C(C)C)[C@H](O)[C@@H]3O)/C(C)=C/C(C)=C/C[C@@H]([C@@H](C)O)OC2=O)O[C@@H]1C` is reported as 93.2%.
`CC(C)c1cc(C(C)C)c(CC(=O)NS(=O)(=O)Oc2c(C(C)C)cccc2C(C)C)c(C(C)C)c1` gave a remaining activity of 83.9%.
With `CC1COC2(CCN(c3nc(=O)c4cc(C(F)(F)F)cc([N+](=O)[O-])c4s3)CC2)O1` (racemic) the remaining activity was 92.3%.
`COc1cccc(OC)c1OCCNCC1COc2ccccc2O1` (stereo not shown) has a remaining activity of 113%.

Sample 2
SMILES: COc1cc(C(=O)N2CCC(N3CCN(C)CC3)CC2)ccc1Nc1ncc2c(n1)N(C)c1ccccc1C(=O)N2C
For OSR1 (human); probe labelling, KiNativ ADP probe; human PBMC lysate; concentration not given, LYS2 labelled site: inhibition read -42.5%.
MYLK; KiNativ ATP probe; mouse brain lysate; 0.1 µM, LYS2 site — inhibition: -12.3%.
It gave 2.7% for inhibition (mouse ROCK1 and ROCK2; probe labelling, KiNativ ADP probe; mouse brain lysate; 0.1 µM).
It gave -4.3% for inhibition (PIP4K2C (mouse); probe labelling, KiNativ, measured: ATP site peptide; brain tissue lysate (mouse); 1 µM, with: ATP acyl-phosphate probe).
It gave 0.8% for inhibition (human PBMC; probe labeling, inhibitor, KiNativ profiling; cell lysate; concentration not given, domain 1, LYS1 site, with: ATP acyl-phosphate probe 0.1 µM).
The inhibition was 9.8% (RSK3 domain 1 (mouse); probe labelling, inhibitor, KiNativ ActivX ADP probe; mouse brain lysate; 0.1 µM, Lys1 site peptide).
The inhibition was -28.7% (LRRK2; KiNativ ADP probe; mouse brain lysate; 0.1 µM, LYS1 site).
It gave -8% for inhibition (NEK9 human; KiNativ profiling; human PBMC lysate; concentration not given, ATP probe, activation loop site).

Sample 3 — mode: agonist
Target: Beta-1 adrenergic receptor (ADRB1, Homo sapiens, UniProt P08588)
Sequence of UniProt P08588 (whole entry, looked up): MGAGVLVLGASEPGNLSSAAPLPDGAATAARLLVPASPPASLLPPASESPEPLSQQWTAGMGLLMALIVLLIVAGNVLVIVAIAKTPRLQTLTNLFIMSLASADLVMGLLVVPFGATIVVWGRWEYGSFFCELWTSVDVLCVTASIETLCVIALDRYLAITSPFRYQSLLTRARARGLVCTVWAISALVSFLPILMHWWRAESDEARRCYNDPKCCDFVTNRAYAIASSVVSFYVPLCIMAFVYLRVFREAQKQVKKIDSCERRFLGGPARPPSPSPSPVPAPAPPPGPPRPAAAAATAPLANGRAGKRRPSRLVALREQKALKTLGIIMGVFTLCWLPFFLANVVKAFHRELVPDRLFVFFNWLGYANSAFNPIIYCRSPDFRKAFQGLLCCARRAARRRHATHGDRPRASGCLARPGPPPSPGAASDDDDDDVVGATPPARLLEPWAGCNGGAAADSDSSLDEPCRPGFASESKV
`CC(C)c1ccc(Nc2n[nH]c(C(O)c3ccccc3)n2)cc1` (stereo not shown) has an EC50 of no less than 100 µM.
With `COc1ccccc1-c1cc(-c2ccsc2)c2onc(C)c2n1` the EC50 was no less than 100 µM.
With `Oc1ccc(-c2cc(-c3cccc(N4CCOCC4)c3)cn3cncc23)cn1` the EC50 was no less than 100 µM.
`Cc1nn2c(=O)cc(CSc3nnc(-c4ccccc4C)o3)nc2s1` has an EC50 of no less than 100 µM.
For `COc1ccc2c(C)cc(=O)oc2c1`, the EC50 was no less than 100 µM.
`N#Cc1cc2c(nc1N1CCC(COc3cccc(C(F)(F)F)n3)CC1)CCOC2` has an EC50 of no less than 100 µM.
For `COc1ccc(CN2CC[C@@H]3OCC(=O)N(Cc4c[nH]c5ccccc45)[C@H]3CC2)cc1O`, the EC50 was no less than 100 µM.
The EC50 of `CCOc1ccccc1C(=O)N1CCc2cc(OC)c(OC)cc2C1COc1ccc2c(C)cc(=O)oc2c1` (stereo not shown) is reported as no less than 100 µM.

Further values, each from its own experiment
The inhibition of `CCC(=O)N[C@@H]1CC[C@H](C(=O)N(C)c2ccc(-c3nc4ccccc4o3)cc2)C1` is reported as 20.4% (Kappa-type opioid receptor (OPRK1, Homo sapiens, UniProt P41145); binding, radioligand binding; 10 µM).

Excerpt of the above (sample 2):
It gave 2.7% for inhibition (mouse ROCK1 and ROCK2; probe labelling, KiNativ ADP probe; mouse brain lysate; 0.1 µM).
It gave -4.3% for inhibition (PIP4K2C (mouse); probe labelling, KiNativ, measured: ATP site peptide; brain tissue lysate (mouse); 1 µM, with: ATP acyl-phosphate probe).
It gave 0.8% for inhibition (human PBMC; probe labeling, inhibitor, KiNativ profiling; cell lysate; concentration not given, domain 1, LYS1 site, with: ATP acyl-phosphate probe 0.1 µM).
The inhibition was 9.8% (RSK3 domain 1 (mouse); probe labelling, inhibitor, KiNativ ActivX ADP probe; mouse brain lysate; 0.1 µM, Lys1 site peptide).
